Assay results from different studies.
A part holds a random share of what one study measured. Values joined by “and” are separate records of one study, mostly repeats; a detail may differ.
UniProt P28221, sequence (whole entry, looked up): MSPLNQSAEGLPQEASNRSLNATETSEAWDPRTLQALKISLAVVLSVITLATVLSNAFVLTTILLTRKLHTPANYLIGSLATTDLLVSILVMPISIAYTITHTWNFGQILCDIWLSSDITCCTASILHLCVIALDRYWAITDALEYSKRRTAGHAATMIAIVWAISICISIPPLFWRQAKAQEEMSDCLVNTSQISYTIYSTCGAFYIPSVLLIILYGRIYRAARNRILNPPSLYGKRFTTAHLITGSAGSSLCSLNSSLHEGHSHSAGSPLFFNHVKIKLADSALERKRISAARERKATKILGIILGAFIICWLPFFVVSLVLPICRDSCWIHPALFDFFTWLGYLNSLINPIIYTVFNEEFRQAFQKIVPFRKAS
UniProt P28566, sequence (whole entry, looked up): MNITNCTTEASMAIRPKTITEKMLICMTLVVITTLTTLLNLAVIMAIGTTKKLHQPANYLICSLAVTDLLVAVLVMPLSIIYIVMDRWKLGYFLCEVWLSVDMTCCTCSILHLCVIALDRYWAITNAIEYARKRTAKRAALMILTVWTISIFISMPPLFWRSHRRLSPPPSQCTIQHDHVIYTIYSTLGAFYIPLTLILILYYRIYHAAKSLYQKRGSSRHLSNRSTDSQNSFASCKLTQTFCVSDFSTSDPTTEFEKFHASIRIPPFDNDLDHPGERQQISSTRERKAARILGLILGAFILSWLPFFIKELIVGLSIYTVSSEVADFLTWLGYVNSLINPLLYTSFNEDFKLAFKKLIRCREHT
UniProt P28223, sequence (whole entry, looked up): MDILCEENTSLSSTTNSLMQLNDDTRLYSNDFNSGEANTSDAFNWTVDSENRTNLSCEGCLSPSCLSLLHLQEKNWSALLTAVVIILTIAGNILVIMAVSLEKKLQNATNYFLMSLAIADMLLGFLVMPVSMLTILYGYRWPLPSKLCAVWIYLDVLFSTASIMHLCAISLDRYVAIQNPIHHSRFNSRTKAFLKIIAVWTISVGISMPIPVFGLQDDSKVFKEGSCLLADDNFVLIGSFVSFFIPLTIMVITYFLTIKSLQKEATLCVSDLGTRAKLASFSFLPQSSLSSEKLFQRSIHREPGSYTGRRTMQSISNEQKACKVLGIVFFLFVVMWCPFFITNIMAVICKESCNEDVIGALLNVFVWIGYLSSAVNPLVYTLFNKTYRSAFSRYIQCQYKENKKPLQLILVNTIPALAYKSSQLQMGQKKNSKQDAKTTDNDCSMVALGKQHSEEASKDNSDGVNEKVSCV
UniProt P47898, sequence (whole entry, looked up): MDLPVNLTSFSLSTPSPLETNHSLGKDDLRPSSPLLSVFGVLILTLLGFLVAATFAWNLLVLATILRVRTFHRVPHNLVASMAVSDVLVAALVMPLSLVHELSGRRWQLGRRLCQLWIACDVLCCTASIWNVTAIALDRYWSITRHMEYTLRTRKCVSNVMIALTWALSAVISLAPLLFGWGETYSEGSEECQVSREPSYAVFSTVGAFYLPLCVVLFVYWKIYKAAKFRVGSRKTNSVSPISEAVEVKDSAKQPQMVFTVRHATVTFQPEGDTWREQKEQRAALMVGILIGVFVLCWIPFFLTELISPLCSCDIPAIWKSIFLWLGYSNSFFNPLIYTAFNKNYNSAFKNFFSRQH
UniProt P41595, sequence (whole entry, looked up): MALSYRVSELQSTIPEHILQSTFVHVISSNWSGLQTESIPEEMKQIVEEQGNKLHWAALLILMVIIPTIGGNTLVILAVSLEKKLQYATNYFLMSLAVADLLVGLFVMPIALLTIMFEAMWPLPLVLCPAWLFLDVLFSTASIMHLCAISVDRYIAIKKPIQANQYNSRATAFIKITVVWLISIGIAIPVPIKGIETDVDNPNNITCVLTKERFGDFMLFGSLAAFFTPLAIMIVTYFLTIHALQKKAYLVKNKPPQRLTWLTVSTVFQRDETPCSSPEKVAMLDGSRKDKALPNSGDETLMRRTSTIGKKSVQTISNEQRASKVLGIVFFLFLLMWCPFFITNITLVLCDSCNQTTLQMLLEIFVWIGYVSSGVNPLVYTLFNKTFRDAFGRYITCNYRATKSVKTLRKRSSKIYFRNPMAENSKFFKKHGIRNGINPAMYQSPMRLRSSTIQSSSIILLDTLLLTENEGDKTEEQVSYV
UniProt P28335, sequence (whole entry, looked up): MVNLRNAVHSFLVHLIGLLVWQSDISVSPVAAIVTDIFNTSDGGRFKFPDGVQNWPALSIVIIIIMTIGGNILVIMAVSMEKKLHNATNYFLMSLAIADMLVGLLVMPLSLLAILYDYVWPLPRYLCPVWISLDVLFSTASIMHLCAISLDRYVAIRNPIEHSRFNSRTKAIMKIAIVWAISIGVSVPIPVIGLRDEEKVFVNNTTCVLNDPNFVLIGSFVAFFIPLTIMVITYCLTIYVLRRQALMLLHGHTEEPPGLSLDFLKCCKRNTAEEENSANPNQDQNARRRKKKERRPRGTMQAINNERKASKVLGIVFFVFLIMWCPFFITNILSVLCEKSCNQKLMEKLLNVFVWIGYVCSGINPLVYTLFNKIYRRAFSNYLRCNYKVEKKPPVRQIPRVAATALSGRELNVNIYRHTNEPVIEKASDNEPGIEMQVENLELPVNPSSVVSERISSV
UniProt P46098, sequence (whole entry, looked up): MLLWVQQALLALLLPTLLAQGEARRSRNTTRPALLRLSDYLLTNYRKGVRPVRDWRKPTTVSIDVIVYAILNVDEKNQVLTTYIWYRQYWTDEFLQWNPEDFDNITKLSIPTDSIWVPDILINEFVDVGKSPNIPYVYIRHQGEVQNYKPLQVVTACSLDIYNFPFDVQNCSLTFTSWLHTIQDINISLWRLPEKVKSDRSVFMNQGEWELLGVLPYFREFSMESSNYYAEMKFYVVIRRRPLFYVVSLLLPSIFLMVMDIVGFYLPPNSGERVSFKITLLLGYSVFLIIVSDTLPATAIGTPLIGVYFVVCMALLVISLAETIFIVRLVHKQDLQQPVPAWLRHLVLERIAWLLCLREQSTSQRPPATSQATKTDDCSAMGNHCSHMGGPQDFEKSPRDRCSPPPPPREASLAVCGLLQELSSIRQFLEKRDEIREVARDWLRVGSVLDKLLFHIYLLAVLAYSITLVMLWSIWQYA
UniProt P08908, sequence (whole entry, looked up): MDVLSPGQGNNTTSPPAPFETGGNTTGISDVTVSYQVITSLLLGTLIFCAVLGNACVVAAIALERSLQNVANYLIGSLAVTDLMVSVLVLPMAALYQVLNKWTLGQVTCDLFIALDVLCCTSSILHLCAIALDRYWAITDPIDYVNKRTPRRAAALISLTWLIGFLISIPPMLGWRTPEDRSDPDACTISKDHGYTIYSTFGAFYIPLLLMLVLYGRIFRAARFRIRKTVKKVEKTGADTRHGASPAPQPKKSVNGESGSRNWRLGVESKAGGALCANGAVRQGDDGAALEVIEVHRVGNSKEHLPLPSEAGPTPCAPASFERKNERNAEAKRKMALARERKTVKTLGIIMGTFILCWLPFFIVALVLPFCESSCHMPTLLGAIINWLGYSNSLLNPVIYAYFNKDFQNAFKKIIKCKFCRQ

Sample 1 — read-out: binding; method: radioligand binding; tested at: 10 µM
Compound: CNC(=O)c1cc(C(=O)NC2CC2)cn(Cc2ccccc2)c1=O
target	inhibition [%]
5-hydroxytryptamine receptor 2C (HTR2C, Homo sapiens, UniProt P28335)	32.1
5-hydroxytryptamine receptor 1D (HTR1D, Homo sapiens, UniProt P28221)	-21.1
5-hydroxytryptamine receptor 1E (HTR1E, Homo sapiens, UniProt P28566)	-11.9
5-hydroxytryptamine receptor 2B (HTR2B, Homo sapiens, UniProt P41595)	16.5
5-hydroxytryptamine receptor 2A (HTR2A, Homo sapiens, UniProt P28223)	-8.9
5-hydroxytryptamine receptor 3A (HTR3A, Homo sapiens, UniProt P46098)	14.3
5-hydroxytryptamine receptor 5A (HTR5A, Homo sapiens, UniProt P47898)	-4.41
5-hydroxytryptamine receptor 1A (HTR1A, Homo sapiens, UniProt P08908)	6.03

Sample 2 — read-out: enzyme activity; action: inhibitor; tested at: 10 µM
Target: Calcium/calmodulin-dependent protein kinase type II subunit alpha (CAMK2A, Homo sapiens, UniProt Q9UQM7)
UniProt Q9UQM7, sequence (whole entry, looked up): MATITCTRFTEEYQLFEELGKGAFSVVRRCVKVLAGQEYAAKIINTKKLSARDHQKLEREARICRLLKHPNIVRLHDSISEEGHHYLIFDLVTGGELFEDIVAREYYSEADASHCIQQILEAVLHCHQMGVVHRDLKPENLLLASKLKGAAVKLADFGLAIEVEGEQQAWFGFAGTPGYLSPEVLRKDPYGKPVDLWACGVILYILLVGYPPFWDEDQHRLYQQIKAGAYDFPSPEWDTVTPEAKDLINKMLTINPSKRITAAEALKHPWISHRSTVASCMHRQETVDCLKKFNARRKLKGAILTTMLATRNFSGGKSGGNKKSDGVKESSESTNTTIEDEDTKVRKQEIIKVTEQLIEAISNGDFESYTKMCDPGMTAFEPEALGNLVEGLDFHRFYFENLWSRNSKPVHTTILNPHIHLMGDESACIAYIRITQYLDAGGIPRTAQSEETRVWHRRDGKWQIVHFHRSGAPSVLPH
Compound	inhibition [%]
N#CCc1c[nH]c2ccccc12	-25
C=C1C(=O)O[C@@H]2O[C@@]3(C)CC[C@H]4[C@H](C)CC[C@@H]1[C@@]24OO3	13
CCCCCOc1ccc(-c2ccc(-c3ccc(C(=O)N[C@H]4C[C@@H](O)[C@@H](O)NC(=O)[C@@H]5[C@@H](O)[C@@H](C)CN5C(=O)[C@H]([C@@H](C)O)NC(=O)[C@H]([C@H](O)[C@@H](O)c5ccc(O)cc5)NC(=O)[C@@H]5C[C@@H](O)CN5C(=O)[C@H]([C@@H](C)O)NC4=O)cc3)cc2)cc1	-19
CCC(COC(=O)c1cc(OC)c(OC)c(OC)c1)(c1ccccc1)N(C)C (centres unmarked)	-10
COc1cc2c(cc1O)-c1cc3ccc(OC)c(OC)c3c[n+]1CC2	-1

Sample 3 — action: agonist
Target: Beta-1 adrenergic receptor (ADRB1, Homo sapiens, UniProt P08588)
UniProt P08588, sequence (whole entry, looked up): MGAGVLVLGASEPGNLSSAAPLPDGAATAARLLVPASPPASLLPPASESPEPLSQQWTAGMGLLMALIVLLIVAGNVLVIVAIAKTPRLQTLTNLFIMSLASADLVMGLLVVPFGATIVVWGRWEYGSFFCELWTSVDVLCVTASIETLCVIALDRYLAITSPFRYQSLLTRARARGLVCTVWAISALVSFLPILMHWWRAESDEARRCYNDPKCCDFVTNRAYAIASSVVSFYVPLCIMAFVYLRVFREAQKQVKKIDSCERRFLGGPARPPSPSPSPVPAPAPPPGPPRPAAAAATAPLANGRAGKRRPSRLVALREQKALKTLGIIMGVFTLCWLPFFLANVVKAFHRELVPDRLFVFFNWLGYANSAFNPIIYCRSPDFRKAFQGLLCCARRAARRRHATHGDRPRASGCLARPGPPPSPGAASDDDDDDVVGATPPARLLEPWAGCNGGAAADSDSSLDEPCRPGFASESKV
Compound	Emax
CC(C)NCC(O)c1cc(O)cc(O)c1 (centres unmarked)	66%
C1=C(c2ccccc2)CCN(Cc2nc3ccccc3[nH]2)C1	41%
Nc1ncnc2c1ncn2[C@@H]1O[C@@H]2COP(O)(=S)O[C@H]2[C@H]1O (some centres unmarked)	103%
CC(Cc1ccccc1)NCCC(c1ccccc1)c1ccccc1 (centres unmarked)	70.2%
COc1ccc(C[C@@H](C)NC[C@H](O)c2ccc(O)c3[nH]c(=O)ccc23)cc1	70.1%
C[C@H](NCCc1ccc(O)cc1)[C@H](O)c1ccc(O)cc1	91.4%
C[C@@H]([C@H](O)c1ccccc1)N(C)C	68.8%
CC(N)[C@H](O)c1ccc(O)c(O)c1 (some centres unmarked)	103%

Sample 4 — species: Sprague-Dawley rat, male; dose: dose not given
SMILES: CC(C)(C)c1cnc(CSc2cnc(NC(=O)C3CCN(CCCCCSc4cccc5c4CN(C4CCC(=O)NC4=O)C5=O)CC3)s2)o1 (centres unmarked)
route	time	body weight
intraperitoneal	day 2	227 g and 206 g and 204 g
intraperitoneal	day 5	241 g and 213 g and 206 g
subcutaneous	day -1	214 g and 195 g and 211 g
subcutaneous	day 12	218 g and 280 g
subcutaneous	day 14	251 g and 306 g
subcutaneous	day 5	208 g and 187 g and 210 g
intraperitoneal	day 12	295 g and 258 g and 248 g
intraperitoneal	day 3	239 g and 216 g and 210 g

For quick reference, copied from above (sample 3):
Compound	Emax
COc1ccc(C[C@@H](C)NC[C@H](O)c2ccc(O)c3[nH]c(=O)ccc23)cc1	70.1%
C[C@@H]([C@H](O)c1ccccc1)N(C)C	68.8%
